Results collected from several papers.
Lines come from different studies, so protocols differ. ± marks the error that the study gave.
FGFR3 isoform IIIc: FGFR3 isoform IIIc (unknown, UniProt Q61851)
Chain of UniProt Q61851 (whole entry, looked up): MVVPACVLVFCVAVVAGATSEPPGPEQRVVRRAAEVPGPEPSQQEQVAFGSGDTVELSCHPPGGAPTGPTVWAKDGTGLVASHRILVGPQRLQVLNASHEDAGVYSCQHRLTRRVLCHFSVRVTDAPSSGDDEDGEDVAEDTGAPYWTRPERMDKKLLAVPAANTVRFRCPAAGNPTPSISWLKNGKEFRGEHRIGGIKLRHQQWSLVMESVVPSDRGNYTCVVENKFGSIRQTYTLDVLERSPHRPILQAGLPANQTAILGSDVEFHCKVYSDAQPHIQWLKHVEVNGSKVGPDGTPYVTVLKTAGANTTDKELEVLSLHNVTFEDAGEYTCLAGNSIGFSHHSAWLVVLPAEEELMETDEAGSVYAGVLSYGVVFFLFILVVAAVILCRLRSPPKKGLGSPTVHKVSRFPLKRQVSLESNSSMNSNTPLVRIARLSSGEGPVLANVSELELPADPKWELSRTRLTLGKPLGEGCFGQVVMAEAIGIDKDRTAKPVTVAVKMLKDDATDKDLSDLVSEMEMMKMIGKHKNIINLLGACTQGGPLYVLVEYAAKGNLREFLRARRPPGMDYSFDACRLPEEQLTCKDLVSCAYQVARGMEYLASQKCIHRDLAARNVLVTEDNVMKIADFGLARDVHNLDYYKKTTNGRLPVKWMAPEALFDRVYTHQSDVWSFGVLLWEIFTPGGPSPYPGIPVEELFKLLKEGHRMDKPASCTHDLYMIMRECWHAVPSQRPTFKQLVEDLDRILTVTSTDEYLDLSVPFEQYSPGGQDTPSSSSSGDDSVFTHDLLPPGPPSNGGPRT
B1: mel-26 (Caenorhabditis elegans, UniProt Q94420); sequence looked up; chain MEPRIDGGVFIGGIGNSGNEMCSNGVPALGVSSQTEIKVEKVQHTWTVKNFSHCYQEYLENFVYLQRGDEQLTWSIKIYPKGNGENNKDFVFLCLNRVINNNVKAGKIGFKSQFKLRTAENKDIEMRIHPNPSHSDYVSYIKRDVLFPQIMPRDMIIVNVEIDVAVETITTTNEPIQFEPTNSEQQLIEDYQRLFSQELLCDFAINVNGKIIRAHKAVLAARSPVFNAMLTHQDTDEAKSSMMYINDMDYDVIYEMVYYIYCGRCNKDITDMATALLIAADKYRLEELKSHCEKYLVENINIENACSLLIIGDLYSAPKLRKRAVTYILARPKNVTGTPGWEDILKGHPNLITDIFSQIDRQSSTGATSSVSNLPGVPMDIPGITGNIVPPPSGL
B2: LAIR1/rat CD4 d3+4 extracellular domain 22-165 (Homo sapiens); sequence looked up; chain QEEDLPRPSISAEPGTVIPLGSHVTFVCRGPVGVQTFRLERDSRSTYNDTEDVSQASPSESEARFRIDSVREGNAGLYRCIYYKPPKWSEQSDYLELLVKESSGGPDSPDTEPGSSAGPTQRPSDNSHNEHAPASQGLKAEHLY
B3: enzyme (Bacillus pumilus, UniProt A8FFI9); chain EARSIAWSVDEFFKNREGTFVIQEVKEKSPWVYNKKRAKERFAPQSTFKVANALIGLQTGAVRDEYDIKYWDGVKREIDNWNRDHTLGSGMRDSVVWYYQAMARDIGEERMNHWVKAIHYGNKDISGGIDQFWLSSTLRISPIEQVRFLKQLYEETLPFDLKNMRTVKRMMVQEEEKHATLYGKTGSGSDIGWYVGFIKHEHKTYILATNIKGTGIEAKDITYRILKKYHLMEASV
B4: CAND1 15-1230 (UniProt Q86VP6); N-terminal FlAsH tetracysteine tag; sequence looked up; chain MTSSDKDFRFMATNDLMTELQKDSIKLDDDSERKVVKMILKLLEDKNGEVQNLAVKCLGPLVSKVKEYQVETIVDTLCTNMLSDKEQLRDISSIGLKTVIGELPPASSGSALAANVCKKITGRLTSAIAKQEDVSVQLEALDIMADMLSRQGGLLVNFHPSILTCLLPQLTSPRLAVRKRTIIALGHLVMSCGNIVFVDLIEHLLSELSKNDSMSTTRTYIQCIAAISRQAGHRIGEYLEKIIPLVVKFCNVDDDELREYCIQAFESFVRRCPKEVYPHVSTIINICLKYLTYDPNYNYDDEDEDENAMDADGGDDDDQGSDDEYSDDDDMSWKVRRAAAKCLDAVVSTRHEMLPEFYKTVSPALISRFKEREENVKADVFHAYLSLLKQTRPVQSWLCDPDAMEQGETPLTMLQSQVPNIVKALHKQMKEKSVKTRQCCFNMLTELVNVLPGALTQHIPVLVPGIIFSLNDKSSSSNLKIDALSCLYVILCNHSPQVFHPHVQALVPPVVACVGDPFYKITSEALLVTQQLVKVIRPLDQPSSFDATPYIKDLFTCTIKRLKAADIDQEVKERAISCMGQIICNLGDNLGSDLPNTLQIFLERLKNEITRLTTVKALTLIAGSPLKIDLRPVLGEGVPILASFLRKNQRALKLGTLSALDILIKNYSDSLTAAMIDAVLDELPPLISESDMHVSQMAISFLTTLAKVYPSSLSKISGSILNELIGLVRSPLLQGGALSAMLDFFQALVVTGTNNLGYMDLLRMLTGPVYSQSTALTHKQSYYSIAKCVAALTRACPKEGPAVVGQFIQDVKNSRSTDSIRLLALLSLGEVGHHIDLSGQLELKSVILEAFSSPSEEVKSAASYALGSISVGNLPEYLPFVLQEITSQPKRQYLLLHSLKEIISSASVVGLKPYVENIWALLLKHCECAEEGTRNVVAECLGKLTLIDPETLLPRLKGYLISGSSYARSSVVTAVKFTISDHPQPIDPLLKNCIGDFLKTLEDPDLNVRRVALVTFNSAAHNKPSLIRDLLDTVLPHLYNETKVRKELIREVEMGPFKHTVDDGLDIRKAAFECMYTLLDSCLDRLDIFEFLNHVEDGLKDHYDIKMLTFLMLVRLSTLCPSAVLQRLDRLVEPLRATCTTKVKANSVKQEFEKQDELKRSAMRAVAALLTIPEAEKSPLMSEFQSQISSNPELAAIFESIQKDSSSTNLESMDTS
B5: FGF6 (Homo sapiens, UniProt P10767); chain SPAGTRANNTLLDSRGWGTLLSRSRAGLAGEIAGVNWESGYLVGIKRQRRLYCNVGIGFHLQVLPDGRISGTHEENPYSLLEISTVERGVVSLFGVRSALFVAMNSKGRLYATPSFQEECKFRETLLPNNYNAYESDLYQGTYIALSKYGRVKRGSKVSPIMTVTHFLPRI
Chain of UniProt P55075 (whole entry, looked up): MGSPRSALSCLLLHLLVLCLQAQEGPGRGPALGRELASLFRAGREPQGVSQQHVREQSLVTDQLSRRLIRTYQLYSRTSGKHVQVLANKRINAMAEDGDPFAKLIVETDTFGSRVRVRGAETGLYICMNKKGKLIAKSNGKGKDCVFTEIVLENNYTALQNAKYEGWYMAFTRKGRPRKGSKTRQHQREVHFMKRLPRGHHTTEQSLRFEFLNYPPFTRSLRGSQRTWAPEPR
Chain of UniProt P35191 (whole entry, looked up): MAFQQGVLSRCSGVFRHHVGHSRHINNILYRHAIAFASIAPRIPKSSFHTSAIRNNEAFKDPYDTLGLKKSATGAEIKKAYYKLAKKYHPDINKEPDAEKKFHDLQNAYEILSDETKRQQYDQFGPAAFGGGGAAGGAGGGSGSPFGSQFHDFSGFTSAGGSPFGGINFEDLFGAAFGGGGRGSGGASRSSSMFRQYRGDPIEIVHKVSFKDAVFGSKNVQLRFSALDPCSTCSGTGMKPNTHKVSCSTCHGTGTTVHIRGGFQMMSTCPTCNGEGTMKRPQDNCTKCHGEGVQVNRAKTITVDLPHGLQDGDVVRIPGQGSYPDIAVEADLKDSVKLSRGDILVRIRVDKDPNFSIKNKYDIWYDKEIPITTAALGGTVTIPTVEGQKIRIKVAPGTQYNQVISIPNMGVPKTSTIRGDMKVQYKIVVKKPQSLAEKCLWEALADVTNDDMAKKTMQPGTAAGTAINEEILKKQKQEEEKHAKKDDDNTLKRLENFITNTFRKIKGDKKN
Chain of UniProt P70618 (whole entry, looked up): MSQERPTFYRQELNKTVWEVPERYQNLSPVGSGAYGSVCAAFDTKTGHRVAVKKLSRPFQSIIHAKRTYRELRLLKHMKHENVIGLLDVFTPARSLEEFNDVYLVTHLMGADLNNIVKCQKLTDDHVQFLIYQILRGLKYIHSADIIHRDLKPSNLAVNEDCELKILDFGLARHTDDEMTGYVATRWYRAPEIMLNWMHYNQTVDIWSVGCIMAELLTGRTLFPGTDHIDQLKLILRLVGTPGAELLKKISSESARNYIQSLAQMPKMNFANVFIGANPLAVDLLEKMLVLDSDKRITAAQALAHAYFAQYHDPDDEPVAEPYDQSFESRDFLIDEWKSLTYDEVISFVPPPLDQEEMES
Chain of UniProt P30872 (whole entry, unmodified, looked up): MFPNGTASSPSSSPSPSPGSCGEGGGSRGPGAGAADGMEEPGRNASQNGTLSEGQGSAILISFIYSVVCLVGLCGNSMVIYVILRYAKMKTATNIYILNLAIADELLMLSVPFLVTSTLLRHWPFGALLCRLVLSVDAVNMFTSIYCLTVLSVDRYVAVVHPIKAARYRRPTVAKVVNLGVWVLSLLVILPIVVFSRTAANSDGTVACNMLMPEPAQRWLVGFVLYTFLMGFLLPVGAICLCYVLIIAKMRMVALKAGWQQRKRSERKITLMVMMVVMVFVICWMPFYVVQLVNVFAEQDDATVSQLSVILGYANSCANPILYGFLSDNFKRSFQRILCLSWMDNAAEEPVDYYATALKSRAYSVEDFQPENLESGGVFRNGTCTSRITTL
Chain of UniProt O60656 (whole entry, looked up): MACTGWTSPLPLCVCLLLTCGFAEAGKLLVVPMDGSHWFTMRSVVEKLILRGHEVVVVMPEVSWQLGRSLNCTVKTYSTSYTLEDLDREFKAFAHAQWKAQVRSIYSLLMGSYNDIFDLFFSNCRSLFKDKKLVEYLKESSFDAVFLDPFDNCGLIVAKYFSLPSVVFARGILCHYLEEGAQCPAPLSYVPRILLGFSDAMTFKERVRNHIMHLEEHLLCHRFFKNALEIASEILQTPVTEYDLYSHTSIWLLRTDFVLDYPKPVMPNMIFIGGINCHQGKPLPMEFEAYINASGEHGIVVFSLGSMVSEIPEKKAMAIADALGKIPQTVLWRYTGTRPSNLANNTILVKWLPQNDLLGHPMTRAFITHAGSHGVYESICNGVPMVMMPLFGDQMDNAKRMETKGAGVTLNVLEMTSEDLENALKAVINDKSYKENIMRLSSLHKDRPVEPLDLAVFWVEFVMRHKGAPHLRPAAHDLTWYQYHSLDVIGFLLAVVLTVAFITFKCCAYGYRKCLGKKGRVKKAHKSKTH
Chain of UniProt P21554 (whole entry, looked up): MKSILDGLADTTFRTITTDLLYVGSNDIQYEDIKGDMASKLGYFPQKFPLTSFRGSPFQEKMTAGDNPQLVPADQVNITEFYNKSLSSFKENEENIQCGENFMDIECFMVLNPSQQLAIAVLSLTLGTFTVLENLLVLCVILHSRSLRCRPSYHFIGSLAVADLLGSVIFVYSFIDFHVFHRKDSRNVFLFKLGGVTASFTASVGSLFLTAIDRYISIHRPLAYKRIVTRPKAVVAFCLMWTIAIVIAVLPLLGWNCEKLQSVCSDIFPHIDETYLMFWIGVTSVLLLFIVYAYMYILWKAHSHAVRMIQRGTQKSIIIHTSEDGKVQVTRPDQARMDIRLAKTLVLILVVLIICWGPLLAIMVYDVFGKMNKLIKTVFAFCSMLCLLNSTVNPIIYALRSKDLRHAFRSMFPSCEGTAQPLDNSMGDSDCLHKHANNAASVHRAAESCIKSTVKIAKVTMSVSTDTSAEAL
Chain of UniProt P0A6A8 (whole entry, looked up): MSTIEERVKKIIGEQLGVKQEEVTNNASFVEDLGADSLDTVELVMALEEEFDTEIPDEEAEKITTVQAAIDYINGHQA
Chain of UniProt Q9UQ84 (whole entry, looked up): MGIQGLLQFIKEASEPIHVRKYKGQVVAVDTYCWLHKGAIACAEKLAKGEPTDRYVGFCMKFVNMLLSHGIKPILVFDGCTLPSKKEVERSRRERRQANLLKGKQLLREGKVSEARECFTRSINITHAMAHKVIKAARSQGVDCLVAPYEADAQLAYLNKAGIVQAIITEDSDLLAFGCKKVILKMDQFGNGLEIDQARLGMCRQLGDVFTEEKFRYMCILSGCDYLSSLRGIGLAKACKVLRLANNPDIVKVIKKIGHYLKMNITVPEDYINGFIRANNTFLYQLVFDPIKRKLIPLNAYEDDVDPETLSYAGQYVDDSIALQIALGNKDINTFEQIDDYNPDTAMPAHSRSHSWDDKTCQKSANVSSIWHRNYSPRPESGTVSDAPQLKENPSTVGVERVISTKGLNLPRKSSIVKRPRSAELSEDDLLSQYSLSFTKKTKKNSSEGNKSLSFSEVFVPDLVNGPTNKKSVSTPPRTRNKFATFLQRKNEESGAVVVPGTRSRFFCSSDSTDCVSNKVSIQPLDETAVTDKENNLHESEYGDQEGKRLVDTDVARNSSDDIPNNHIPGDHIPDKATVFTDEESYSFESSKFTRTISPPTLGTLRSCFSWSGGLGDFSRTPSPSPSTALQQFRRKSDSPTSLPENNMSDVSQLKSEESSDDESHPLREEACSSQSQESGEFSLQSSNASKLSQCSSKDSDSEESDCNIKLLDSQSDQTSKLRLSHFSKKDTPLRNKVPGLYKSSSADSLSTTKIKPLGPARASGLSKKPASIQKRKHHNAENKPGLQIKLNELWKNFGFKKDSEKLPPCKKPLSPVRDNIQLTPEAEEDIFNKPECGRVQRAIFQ
Chain of UniProt Q24547 (whole entry, unmodified, looked up): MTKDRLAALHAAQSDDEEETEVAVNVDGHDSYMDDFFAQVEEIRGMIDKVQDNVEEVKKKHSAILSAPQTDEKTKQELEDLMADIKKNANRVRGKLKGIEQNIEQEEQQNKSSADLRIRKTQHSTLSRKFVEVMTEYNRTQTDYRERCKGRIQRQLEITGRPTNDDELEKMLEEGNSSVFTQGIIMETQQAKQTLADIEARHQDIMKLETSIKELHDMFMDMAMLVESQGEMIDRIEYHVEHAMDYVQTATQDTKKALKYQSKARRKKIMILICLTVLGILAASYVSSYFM

The association increase of `Prkcb (Mus musculus, UniProt P68404)` is reported as 4.3 fold (integrin β3 (Mus musculus, UniProt O54890); co-IP; mouse aortic SMCs; hyperglycemia; reference: euglycemic conditions, higher = more association).
For `SIYNFEKL`, “IFN-gamma+ TNF-alpha+ cells” read 0.09% (OT-I CD8+ T cells; item: IFN-gamma, TNF-alpha; peptide; concentration not given, primed 5 d, OVA257 100 ng/mL restimulation, together with: no TGF-beta1).
`SUMO1 fragment D85C (Arabidopsis thaliana)`: “SUMO conjugation rate” 24% (SAE2/SAE1a (Arabidopsis thaliana); SUMO conjugation; 42 °C; reference: native AtSUMO1, higher = faster conjugation).
With `WRN fragment (Homo sapiens)` the incision was 12 fold (EXO1 (Homo sapiens, UniProt Q9UQ84); Holliday junction incision by EXO1, activator; 8 nM, 15 min, 37 °C; higher = more incision).
The IFN-gamma+ cells of `SIIVFEKL` is reported as 71% (OT-I CD8+ T cells; peptide; concentration not given, primed 5 d, OVA257 100 ng/mL restimulation, together with: no TGF-beta1).
For `GPIHBP1 acidic N-terminal region (Homo sapiens)`, “remaining LPL activity” read 60% (LPL (Bos taurus, UniProt P11151); lipase activity; 10 nM, 37 °C, together with: peptide 1 µM; higher = less inhibition).
With `YANQLKFRKKKLKFCK (SETD1B D-site peptide (Homo sapiens))` the IC50 was 7.8 µM (Mapk14, pT180, pY182 (Rattus norvegicus, UniProt P70618); kinase activity, inhibitor, competitive kinase inhibition assay; peptide; together with: ATP 1 mM).
`B1 (mel-26)`: binding “binds” (mei-1/mei-2, phosphorylated by MBK-2 (Caenorhabditis elegans); dot blot; 4 °C, native).
Under “molecule per partner”, `KWDTANNPLYKEATSTFTNITYRGT (ITGB3 764-788 (Homo sapiens, UniProt P05106); sequence looked up)` is recorded as 0.99 ± 0.1 (Myom1 IgC2 domain 4 (Mus musculus); ITC; peptide; pH 6.8, 25 °C, NaCl 50 mM).
`SSC1 mature P486S (Saccharomyces cerevisiae)`: “reduction in chaperone activity” 35% (Mdj1 mature (Saccharomyces cerevisiae, UniProt P35191); prevention of rhodanese aggregation; preformed complex; reference: wild-type Ssc1, higher = greater loss of activity).
For `ADM mature (Homo sapiens)`, “cAMP decay rate” read 0.4 min⁻¹ (CALCRL/RAMP2 whole, on cells (Homo sapiens); cAMP, antagonist, CAMYEL BRET; COS-7; 100 nM agonist).
For `B2`, the response was 2500 RU (LILRB4/rat CD4 d3+4 extracellular domain 24-238 (Mus musculus); SPR; multivalent bead assay).
`TFPI (Homo sapiens, UniProt P10646-1)` gave an IC50 of 0.0149 µM (F5 B-domain deleted 811-1490 R709Q/R1545Q (UniProt P12259); prothrombinase inhibition, inhibitor; together with: UFH 1 u/mL).
`fabF fragment (Escherichia coli)` gave a condensation rate of 2.24 min⁻¹ (acpP C12-acylated 1-78, C12 acyl on 4'-phosphopantetheine (Escherichia coli, UniProt P0A6A8); holo-AcpP formation, HPLC; 10 µM, together with: malonyl-CoA).
With `protein 10-407 del142-163 (Drosophila melanogaster, UniProt Q8IML5)` the binding increase was 2 fold (Syx1A 1-267 L168A/E169A (Drosophila melanogaster, UniProt Q24547); pull-down; together with: Ca2+-CaM; reference: before Ca2+-CaM, higher = more binding).
Under “maximum factor Xa generated”, `TFPI endogenous, on cells (Homo sapiens, UniProt P10646)` is recorded as 39.6 nM (F3/F7 TF-fVIIa complex (Homo sapiens); factor Xa generation; HUVEC; LPS-treated, endogenous TF, methyl-β-cyclodextrin).
`MMP2 fragment R252A/R368A (Homo sapiens)` has a hydrolysis rate of 0.105 RFU/s (COL1A1/COL1A2 denatured, gelatin (Homo sapiens); DQ-gelatin fluorescence; 10 nM, 25 °C; higher = faster hydrolysis).
`F8 A2 domain (human)` gave a decay rate of 1.12 min⁻¹ (F8 A1 and A3C1C2 dimer, factor VIIIa S1787D; FXa generation activity loss; 1.5 nM, 23 °C; higher = faster decay).
`FGF8 (Homo sapiens, UniProt P55075)` has a cell proliferation of 34% (FGFR3 isoform IIIc; cell proliferation, MTT; BaF3-FGFR3c; 20 nM, 48 h, together with: chondroitin sulfate A 4.9 µg/mL; reference: FGF 1 with heparin, higher = more proliferation).
For `B3 (enzyme)`, the kcat was greater than 0.7 s⁻¹ (CO/N=C(\C(=O)N[C@@H]1C(=O)N2C(C(=O)O)=C(COC(C)=O)CS[C@H]12)c1csc(N)n1; steady-state kinetics; pH 7).
For `B4 (CAND1 15-1230)`, the koff was 67 s⁻¹ (CUL1/RBX1/SKP1/SKP2, C-terminal AMC; FRET).
Under “cAMP inhibition decrease”, `lanreotide, D-Trp, cyclic disulfide` is recorded as 80% (SSTR1 L114A (Homo sapiens, UniProt P30872); cAMP inhibition, FRET Epac sensor; HEK 293T; reference: wild-type SSTR1, higher = greater decrease).
With `B5 (FGF6)` the cell proliferation was 74% (FGFR3 isoform IIIc; cell proliferation, MTT; BaF3-FGFR3c; 20 nM, 48 h, together with: heparin 4.9 µg/mL; reference: FGF 1 with heparin, higher = more proliferation).
`MENVKKAAATTTWMVPTAQ (L3MBTL3 52-70 T59A (Homo sapiens, UniProt Q96JM7-2); sequence looked up)` gave a ΔH of -9.9 kcal/mol (Rbpj 53-474 (Mus musculus, UniProt P31266); ITC; peptide; pH 6.5, 25 °C, NaCl 150 mM).
`CNR1 (Homo sapiens, UniProt P21554)` has a relative binding of 0.31 ± 0.13 fold (ITGB1 (Homo sapiens, UniProt P05556); co-IP; endothelial cells, cell extracts; clustered integrins, together with: anandamide 10 µM, Ca2+ 2 mM, Mn2+ 70 µM; reference: basal, without anandamide, higher = more CB1R bound).
`UGT1A9 (Homo sapiens, UniProt O60656)` gave a Vmax/Km of 51000 µL/min/mg (COc1ccc(-c2oc3ccc(OC)cc3c(=O)c2O)cc1; steady-state kinetics; pH 7.4, 37 °C).
The cell proliferation of `FGF8b (Homo sapiens)` is reported as 29% (FGFR3 isoform IIIc; cell proliferation, MTT; BaF3-FGFR3c; 20 nM, 48 h, together with: chondroitin sulfate A 4.9 µg/mL; reference: FGF 1 with heparin, higher = more proliferation).
`Ac-ARPCG-NH2 (PTX3 100-104 A104G, N-acetyl/C-terminal amide (Homo sapiens); N-acetyl/C-terminal amide)` gave an ID50 of greater than 1000 µM (FGF2 18 kD form (Homo sapiens); cell proliferation, antagonist; peptide, GM7373; 3-1000 µM, together with: FGF2 0.55 nM).

Excerpt of the above:
For `B2`, the response was 2500 RU (LILRB4/rat CD4 d3+4 extracellular domain 24-238 (Mus musculus); SPR; multivalent bead assay).
For `GPIHBP1 acidic N-terminal region (Homo sapiens)`, “remaining LPL activity” read 60% (LPL (Bos taurus, UniProt P11151); lipase activity; 10 nM, 37 °C, together with: peptide 1 µM; higher = less inhibition).
`UGT1A9 (Homo sapiens, UniProt O60656)` gave a Vmax/Km of 51000 µL/min/mg (COc1ccc(-c2oc3ccc(OC)cc3c(=O)c2O)cc1; steady-state kinetics; pH 7.4, 37 °C).
